Measurements of several laboratories.
Lines come from different studies, so protocols differ. ± marks the error that the study gave. Non-standard residues stand in square brackets, D forms with d. Square brackets hold non-standard residues; d marks the D form. Ends that are not written are not given here. No end group written: not given here.
heavy meromyosin HMM: heavy meromyosin HMM (Oryctolagus cuniculus)
B1: ALOX15 (Homo sapiens, UniProt P16050); sequence looked up; chain MGLYRIRVSTGASLYAGSNNQVQLWLVGQHGEAALGKRLWPARGKETELKVEVPEYLGPLLFVKLRKRHLLKDDAWFCNWISVQGPGAGDEVRFPCYRWVEGNGVLSLPEGTGRTVGEDPQGLFQKHREEELEERRKLYRWGNWKDGLILNMAGAKLYDLPVDERFLEDKRVDFEVSLAKGLADLAIKDSLNVLTCWKDLDDFNRIFWCGQSKLAERVRDSWKEDALFGYQFLNGANPVVLRRSAHLPARLVFPPGMEELQAQLEKELEGGTLFEADFSLLDGIKANVILCSQQHLAAPLVMLKLQPDGKLLPMVIQLQLPRTGSPPPPLFLPTDPPMAWLLAKCWVRSSDFQLHELQSHLLRGHLMAEVIVVATMRCLPSIHPIFKLIIPHLRYTLEINVRARTGLVSDMGIFDQIMSTGGGGHVQLLKQAGAFLTYSSFCPPDDLADRGLLGVKSSFYAQDALRLWEIIYRYVEGIVSLHYKTDVAVKDDPELQTWCREITEIGLQGAQDRGFPVSLQARDQVCHFVTMCIFTCTGQHASVHLGQLDWYSWVPNAPCTMRLPPPTTKDATLETVMATLPNFHQASLQMSITWQLGRRQPVMVAVGQHEEEYFSGPEPKAVLKKFREELAALDKEIEIRNAKLDMPYEYLRPSVVENSVAI
B2: UGT1A9 (Homo sapiens, UniProt O60656); chain GKLLVVPMDGSHWFTMRSVVEKLILRGHEVVVVMPEVSWQLGRSLNCTVKTYSTSYTLEDLDREFKAFAHAQWKAQVRSIYSLLMGSYNDIFDLFFSNCRSLFKDKKLVEYLKESSFDAVFLDPFDNCGLIVAKYFSLPSVVFARGILCHYLEEGAQCPAPLSYVPRILLGFSDAMTFKERVRNHIMHLEEHLLCHRFFKNALEIASEILQTPVTEYDLYSHTSIWLLRTDFVLDYPKPVMPNMIFIGGINCHQGKPLPMEFEAYINASGEHGIVVFSLGSMVSEIPEKKAMAIADALGKIPQTVLWRYTGTRPSNLANNTILVKWLPQNDLLGHPMTRAFITHAGSHGVYESICNGVPMVMMPLFGDQMDNAKRMETKGAGVTLNVLEMTSEDLENALKAVINDKSYKENIMRLSSLHKDRPVEPLDLAVFWVEFVMRHKGAPHLRPAAHDLTWYQYHSLDVIGFLLAVVLTVAFITFKCCAYGYRKCLGKKGRVKKAHKSKTH
B3: pdeA 2-130 (Caulobacter crescentus, UniProt Q9A310); sequence looked up; chain SFRTGERRIWDATATLEALGAADVALWIWEPETDRLRLNGAARALGLGPLAPECSSAAFRALALPQDRAQAEEVLKPREPGSEVVARFRVRGGETCLWRGVWLEEGVRAAGVVAPETKFSASELCDLTG
UniProt P27918, sequence (whole entry, looked up): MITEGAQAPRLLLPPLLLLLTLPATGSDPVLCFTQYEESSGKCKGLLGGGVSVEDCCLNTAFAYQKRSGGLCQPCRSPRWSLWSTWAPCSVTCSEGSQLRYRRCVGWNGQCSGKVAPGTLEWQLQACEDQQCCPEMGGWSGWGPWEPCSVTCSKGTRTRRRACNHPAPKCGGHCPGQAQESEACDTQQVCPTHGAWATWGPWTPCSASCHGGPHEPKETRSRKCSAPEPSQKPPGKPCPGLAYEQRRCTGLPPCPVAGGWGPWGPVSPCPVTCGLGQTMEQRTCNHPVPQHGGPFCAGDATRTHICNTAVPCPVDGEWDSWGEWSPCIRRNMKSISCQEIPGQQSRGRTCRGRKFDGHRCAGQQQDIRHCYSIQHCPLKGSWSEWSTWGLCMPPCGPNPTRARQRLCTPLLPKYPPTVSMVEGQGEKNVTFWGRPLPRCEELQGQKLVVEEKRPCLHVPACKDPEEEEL
UniProt P78527, sequence (whole entry, looked up): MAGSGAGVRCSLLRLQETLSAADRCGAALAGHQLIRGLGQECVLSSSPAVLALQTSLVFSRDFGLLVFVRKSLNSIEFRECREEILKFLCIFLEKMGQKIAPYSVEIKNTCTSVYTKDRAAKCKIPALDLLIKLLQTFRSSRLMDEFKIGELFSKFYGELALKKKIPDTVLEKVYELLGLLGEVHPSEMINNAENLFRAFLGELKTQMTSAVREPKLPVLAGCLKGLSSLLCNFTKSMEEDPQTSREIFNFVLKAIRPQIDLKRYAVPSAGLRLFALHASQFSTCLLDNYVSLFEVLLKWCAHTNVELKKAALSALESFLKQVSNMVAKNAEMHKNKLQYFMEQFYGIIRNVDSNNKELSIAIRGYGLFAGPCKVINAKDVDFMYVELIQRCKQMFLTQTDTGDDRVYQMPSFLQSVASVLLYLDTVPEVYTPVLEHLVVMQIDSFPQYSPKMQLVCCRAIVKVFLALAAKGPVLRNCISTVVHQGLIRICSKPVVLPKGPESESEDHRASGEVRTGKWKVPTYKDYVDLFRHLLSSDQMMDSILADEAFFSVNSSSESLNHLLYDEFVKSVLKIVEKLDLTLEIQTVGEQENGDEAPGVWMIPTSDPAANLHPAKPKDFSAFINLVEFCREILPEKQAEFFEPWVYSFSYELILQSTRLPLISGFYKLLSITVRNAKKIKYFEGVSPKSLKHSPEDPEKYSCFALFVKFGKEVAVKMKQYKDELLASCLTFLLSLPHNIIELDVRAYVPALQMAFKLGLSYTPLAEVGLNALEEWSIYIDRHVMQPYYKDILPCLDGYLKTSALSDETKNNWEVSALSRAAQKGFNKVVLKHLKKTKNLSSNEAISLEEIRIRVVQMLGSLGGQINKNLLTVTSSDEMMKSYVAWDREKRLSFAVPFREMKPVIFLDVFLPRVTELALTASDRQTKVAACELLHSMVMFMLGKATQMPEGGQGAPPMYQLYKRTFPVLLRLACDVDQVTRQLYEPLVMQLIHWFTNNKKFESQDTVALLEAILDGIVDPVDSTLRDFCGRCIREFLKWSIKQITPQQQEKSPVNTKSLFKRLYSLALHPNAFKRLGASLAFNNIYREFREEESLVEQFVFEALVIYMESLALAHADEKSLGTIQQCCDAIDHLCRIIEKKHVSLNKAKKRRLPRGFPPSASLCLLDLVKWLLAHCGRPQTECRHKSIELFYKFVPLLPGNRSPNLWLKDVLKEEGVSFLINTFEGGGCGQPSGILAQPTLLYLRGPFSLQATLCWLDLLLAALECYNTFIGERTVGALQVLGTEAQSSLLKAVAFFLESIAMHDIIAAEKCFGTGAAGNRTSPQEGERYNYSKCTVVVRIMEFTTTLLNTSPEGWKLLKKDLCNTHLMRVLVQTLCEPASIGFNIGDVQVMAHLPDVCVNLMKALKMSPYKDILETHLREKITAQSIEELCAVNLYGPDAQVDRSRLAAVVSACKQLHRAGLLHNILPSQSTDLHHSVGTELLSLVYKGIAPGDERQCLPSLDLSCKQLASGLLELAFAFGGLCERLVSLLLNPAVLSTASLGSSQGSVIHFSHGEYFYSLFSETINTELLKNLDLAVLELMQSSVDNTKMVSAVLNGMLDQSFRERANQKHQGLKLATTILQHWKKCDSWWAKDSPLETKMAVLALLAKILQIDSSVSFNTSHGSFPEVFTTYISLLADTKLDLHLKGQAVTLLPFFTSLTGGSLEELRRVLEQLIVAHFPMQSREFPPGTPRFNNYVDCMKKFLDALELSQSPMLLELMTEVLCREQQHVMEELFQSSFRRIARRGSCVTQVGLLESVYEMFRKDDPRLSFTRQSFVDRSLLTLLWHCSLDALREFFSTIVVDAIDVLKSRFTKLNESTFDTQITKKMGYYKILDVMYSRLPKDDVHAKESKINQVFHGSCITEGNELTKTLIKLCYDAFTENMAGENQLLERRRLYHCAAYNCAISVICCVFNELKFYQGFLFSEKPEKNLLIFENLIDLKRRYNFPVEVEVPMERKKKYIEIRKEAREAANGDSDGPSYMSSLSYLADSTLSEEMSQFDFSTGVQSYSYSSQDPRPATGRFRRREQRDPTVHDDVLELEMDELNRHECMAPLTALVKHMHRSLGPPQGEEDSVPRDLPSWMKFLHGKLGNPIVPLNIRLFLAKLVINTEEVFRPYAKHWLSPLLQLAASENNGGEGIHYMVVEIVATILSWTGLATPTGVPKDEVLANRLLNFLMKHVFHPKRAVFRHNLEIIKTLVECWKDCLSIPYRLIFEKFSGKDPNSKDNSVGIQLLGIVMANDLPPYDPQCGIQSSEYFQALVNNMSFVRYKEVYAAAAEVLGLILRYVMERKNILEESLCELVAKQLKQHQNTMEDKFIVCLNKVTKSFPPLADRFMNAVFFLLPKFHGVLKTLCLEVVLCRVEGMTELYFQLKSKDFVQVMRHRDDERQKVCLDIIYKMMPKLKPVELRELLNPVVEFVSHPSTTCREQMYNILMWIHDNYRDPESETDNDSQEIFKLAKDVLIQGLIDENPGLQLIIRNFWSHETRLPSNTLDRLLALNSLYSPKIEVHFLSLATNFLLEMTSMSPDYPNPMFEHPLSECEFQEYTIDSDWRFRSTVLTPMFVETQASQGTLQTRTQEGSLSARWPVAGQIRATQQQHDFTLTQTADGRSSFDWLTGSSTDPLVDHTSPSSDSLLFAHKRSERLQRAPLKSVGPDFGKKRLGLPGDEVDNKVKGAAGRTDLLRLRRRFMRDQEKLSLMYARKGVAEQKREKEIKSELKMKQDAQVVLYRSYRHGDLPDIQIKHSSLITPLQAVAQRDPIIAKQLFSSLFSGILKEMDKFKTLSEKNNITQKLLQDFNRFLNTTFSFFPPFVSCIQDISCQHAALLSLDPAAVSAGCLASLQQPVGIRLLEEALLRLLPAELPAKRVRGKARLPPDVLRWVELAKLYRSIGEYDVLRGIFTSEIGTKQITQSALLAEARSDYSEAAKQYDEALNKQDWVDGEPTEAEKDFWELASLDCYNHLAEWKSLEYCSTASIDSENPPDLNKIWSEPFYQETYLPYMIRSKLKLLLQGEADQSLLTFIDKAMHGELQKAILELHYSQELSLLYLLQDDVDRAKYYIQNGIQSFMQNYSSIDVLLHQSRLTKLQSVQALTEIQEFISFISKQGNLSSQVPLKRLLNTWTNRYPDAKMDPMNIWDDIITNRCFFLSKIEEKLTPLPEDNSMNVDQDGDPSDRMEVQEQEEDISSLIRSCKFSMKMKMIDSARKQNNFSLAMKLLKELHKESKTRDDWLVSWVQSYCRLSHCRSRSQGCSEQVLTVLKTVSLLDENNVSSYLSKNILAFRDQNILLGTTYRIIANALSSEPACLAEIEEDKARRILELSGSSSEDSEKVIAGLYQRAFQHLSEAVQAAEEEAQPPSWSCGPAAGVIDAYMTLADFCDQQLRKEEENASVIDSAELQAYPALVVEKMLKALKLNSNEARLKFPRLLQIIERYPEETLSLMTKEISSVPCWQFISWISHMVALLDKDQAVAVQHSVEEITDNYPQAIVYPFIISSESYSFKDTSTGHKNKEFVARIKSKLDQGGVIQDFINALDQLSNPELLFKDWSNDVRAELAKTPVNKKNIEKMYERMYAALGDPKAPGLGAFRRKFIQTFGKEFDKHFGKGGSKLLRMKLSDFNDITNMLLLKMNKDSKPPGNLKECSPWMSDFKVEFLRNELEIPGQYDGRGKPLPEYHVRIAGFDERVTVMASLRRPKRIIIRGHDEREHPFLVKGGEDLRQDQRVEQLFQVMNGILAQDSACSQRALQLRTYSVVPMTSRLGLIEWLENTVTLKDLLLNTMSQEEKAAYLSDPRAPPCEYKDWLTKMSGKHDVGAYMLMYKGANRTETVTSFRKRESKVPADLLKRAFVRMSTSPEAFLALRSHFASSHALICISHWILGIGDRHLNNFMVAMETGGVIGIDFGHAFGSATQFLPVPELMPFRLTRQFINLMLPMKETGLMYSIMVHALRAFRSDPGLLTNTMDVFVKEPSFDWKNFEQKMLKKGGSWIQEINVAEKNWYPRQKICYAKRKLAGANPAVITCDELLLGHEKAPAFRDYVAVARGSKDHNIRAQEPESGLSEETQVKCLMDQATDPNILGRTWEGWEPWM
UniProt Q13158, sequence (whole entry, looked up): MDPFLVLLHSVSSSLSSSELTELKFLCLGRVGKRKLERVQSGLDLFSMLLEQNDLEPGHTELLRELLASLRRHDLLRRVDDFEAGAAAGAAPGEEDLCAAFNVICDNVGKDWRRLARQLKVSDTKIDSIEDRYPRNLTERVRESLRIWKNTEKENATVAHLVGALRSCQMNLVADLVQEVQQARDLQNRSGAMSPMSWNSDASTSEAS

Molecule | target or system | assay | system | conditions | scale | quantity | result
SERPINC1 R45E/R46E/K114E/R129E (Homo sapiens) | coagulation factor IXa | steady-state kinetics | – | room temperature, with: heparin | – | k2 | 82 M⁻¹ s⁻¹
ACTN1 fragment (Homo sapiens) | FADD (Homo sapiens, UniProt Q13158) | two-hybrid | – | – | higher = stronger interaction | β-galactosidase activity | 0.01 Miller units
PHF1 fragment (Homo sapiens) (sequence not shown) | H3C1 fragment | ITC | – | – | – | ΔH | -0.817 ± 0.343 kcal/mol
B1 (ALOX15) | PRKDC (Homo sapiens, UniProt P78527) | immunoprecipitation kinase assay | lysate | – | baseline: HCT-116 vector cell lysates, higher = more kinase activity | relative DNA-PK kinase activity | 3 fold
ACTC1 R312H | heavy meromyosin HMM | in vitro motility assay | – | model fit, with: alpha-actinin | – | frictional load | 174 pN
B2 (UGT1A9) | O=c1c(O)c(-c2ccccc2O)oc2cc(O)cc(O)c12 | steady-state kinetics | – | pH 7.4, 37 °C | – | Vmax | 0.000246 µmol/min/mg
ACTC1 (Homo sapiens, UniProt P68032) | heavy meromyosin HMM | in vitro motility assay | – | model fit, with: alpha-actinin | – | frictional load | 249 pN
CCND1/CDK4 fusion, linker (Homo sapiens) | RB1 F897A/L901A/R908A (Homo sapiens, UniProt P06400) | in vitro kinase assay | – | – | baseline: wild-type Rb, higher = greater difference | Rb phosphorylation | 30 fold
ETDKE[pY][pY]TVKD (JAK1 1029-1039; pY1034/pY1035; pY = N[C@@H](Cc1ccc(OP(=O)(O)O)cc1)C(=O)O) | PTPN6 243-530 C453S (Homo sapiens, UniProt P29350) | ITC | peptide | – | – | ΔH | -16.6 ± 0.5 kcal/mol
Tnfrsf11b CRD (Mus musculus) | Tnfsf11 162-316 (Mus musculus, UniProt O35235-1) | SPR | – | – | baseline: RANK, higher = faster association | relative on-rate | 30 fold
AEBP2 (Homo sapiens, UniProt Q6ZN18) | SUZ12 F99A/R103A/L105A/I106A (Homo sapiens, UniProt Q15022) | affinity purification mass spectrometry | hiPSC, lysate | – | baseline: WT SUZ12, higher = less enriched | enrichment | 53 fold
C3 C3(H2O), hydrolysed thioester (UniProt P01024) | CFP trimer (Homo sapiens, UniProt P27918) | flow cytometry | thrombin-activated platelets | with: properdin P3 25 µg/mL | baseline: activated platelets without properdin, higher = more C3(H2O) bound | relative binding | 1.5 fold
B3 (pdeA 2-130) | pdeA R69A (Caulobacter crescentus, UniProt Q9A310) | degradation by CpdR/ClpXP | – | after subunit exchange | – | half-life | 1.37 h
LCMT1 fragment T29V (Homo sapiens) | PPP2R1A/PPP2CA A-C core dimer 1-589 (Homo sapiens) | phosphatase activity, inhibitor | – | – | baseline: wild type LCMT-1, higher = stronger inhibition | inhibition efficacy | 4 fold
KKAVK[pS]PAKAKAW (histone H1.1 residues 178-189 (Homo sapiens); pS183; pS = N[C@@H](COP(=O)(O)O)C(=O)O) | PIN1 (Homo sapiens, UniProt Q13526) | EXSY NMR | peptide | 1 mM peptide, 25 °C | – | exchange rate constant | 6.2 s⁻¹
CALM1 T26C, Alexa Fluor 568 at C26 (sequence not shown) | Camk2d T287A (Rattus norvegicus) | FRET | – | 100 nM | – | donor fluorescence lifetime | 2.4 ns

Repeated from above:
Molecule | target or system | assay | system | conditions | scale | quantity | result
ACTN1 fragment (Homo sapiens) | FADD (Homo sapiens, UniProt Q13158) | two-hybrid | – | – | higher = stronger interaction | β-galactosidase activity | 0.01 Miller units
PHF1 fragment (Homo sapiens) (sequence not shown) | H3C1 fragment | ITC | – | – | – | ΔH | -0.817 ± 0.343 kcal/mol
